# Published values of several laboratories.
# Parts stem from different laboratories: compare values within a part only. Substitutions count along the parent as printed.

# Set 1
# Target: UBE2E2 UBC core domain (UniProt Q96LR5)
# UniProt Q96LR5, sequence (whole entry, looked up): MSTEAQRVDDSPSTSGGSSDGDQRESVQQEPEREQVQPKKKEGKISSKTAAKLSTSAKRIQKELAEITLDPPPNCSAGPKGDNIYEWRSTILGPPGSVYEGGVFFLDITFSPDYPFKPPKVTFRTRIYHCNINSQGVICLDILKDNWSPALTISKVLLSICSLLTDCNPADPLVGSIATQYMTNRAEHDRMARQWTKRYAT
# Technique: yeast two-hybrid
# Matrix: yeast
# Setting: mostly zero background
# Reference: not given
# Reading: higher = stronger interaction
# B1: PRKN RING domain (UniProt O60260); chain LIATNSRNITCITCTDVRSPVLVFQCNSRHVICLDCFHLYCVTRLNDRQFVHDPQLGYSLPCVAGCPNSLIKELHH
# B2: RNF135 RING domain (UniProt Q8IUD6); chain PVWLAEDDLGCIICQGLLDWPATLPCGHSFCRHCLEALWGARDARRWACPTCRQGAAQQPHLR
# B3: TRIM22 RING domain (UniProt Q8IYM9); chain KEVKMSPQEGQKRDVCEHHGKKLQIFCKEDGKVICWVCELSQEHQGHQTFRINEVVKECQEK
# B4: RNF24 RING domain (UniProt Q9Y225); chain KVKELNLHELCAVCLEDFKPRDELGICPCKHAFHRKCLIKWLEVRKVCPLCNMPVLQLAQLH
# B5: Ltn1 RING domain (UniProt Q6A009); chain VDKRFEGVEDCMICFSVIHGFNYSLPKKACRTCKKKFHSACLYKWFTSSNKSTCPLCRETFF
# B6: DTX1 RING domain (UniProt Q86Y01); chain QKVKNPPDEDCTICMERLVTASGYEGVLRHKGVRPELVGRLGRCGHMYHLLCLVAMYSNGNKDGSLQCPTCKAIYGEKTGTQ
# B7: TRIM48 RING domain (UniProt Q8IWZ4); chain ISQVFQRELTCPICMNYFIDPVTIDCGHSFCRPCFYLNWQDIPILTQCFECIKTIQQRNLKT
# B8: ZNRF3 RING domain (UniProt Q9ULT6); chain DTLSSSSTSDCAICLEKYIDGEELRVIPCTHRFHRKCVDPWLLQHHTCPHCRHNIIEQKGNP
Molecule,lacZ reporter activity
NTAPSLTVPECAICLQTCVHPVSLPCKHVFCYLCVKGASWLGKRCALCRQEIPEDFLDK (RNF146 RING domain (UniProt Q9NTX7)),0
KEQLEKHNDICAICYQDMKSAVITPCSHFFHAGCLKKWLYVQETCPLCHCHLKNSSQLP (RNF145 RING domain (UniProt Q96MT1)),0
KLWDINAHITCRLCSGYLIDATTVTECLHTFCRSCLVKYLEENNTCPTCRIVIHQSHPLQ (PCGF3 RING domain (UniProt Q3KNV8)),0
B1 (PRKN RING domain),0
KITELNPHLMCVLCGGYFIDATTIIECLHSFCKTCIVRYLETSKYCPICDVQVHKTRPLL (BMI1 RING domain (UniProt P35226)),0
B2 (RNF135 RING domain),0
QLRRLQEERTCKVCLDRAVSIVFVPCGHLVCAECAPGLQLCPICRAPVRSRVRTF (BIRC7 RING domain (UniProt Q96CA5)),0
B3 (TRIM22 RING domain),0
B4 (RNF24 RING domain),0
ALDRLEKLLRCSRCTNILREPVCLGGCEHIFCSNCVSDCIGTGCPVCYTPAWIQDLKI (BARD1 RING domain (UniProt Q99728)),0
MDDQGCPRCKTTKYRNPSLKLMVNVCGHTLCESCVDLLFVRGAGNCPECGTPLRKSNFRV (MNAT1 RING domain (UniProt P51948)),0
B5 (Ltn1 RING domain),0
B6 (DTX1 RING domain),0
B7 (TRIM48 RING domain),0
B8 (ZNRF3 RING domain),0

# Set 2
# Target: Ras GTPase-activating protein-binding protein 1, full length (G3BP1, Homo sapiens, UniProt Q13283)
# UniProt Q13283, sequence (whole entry, looked up): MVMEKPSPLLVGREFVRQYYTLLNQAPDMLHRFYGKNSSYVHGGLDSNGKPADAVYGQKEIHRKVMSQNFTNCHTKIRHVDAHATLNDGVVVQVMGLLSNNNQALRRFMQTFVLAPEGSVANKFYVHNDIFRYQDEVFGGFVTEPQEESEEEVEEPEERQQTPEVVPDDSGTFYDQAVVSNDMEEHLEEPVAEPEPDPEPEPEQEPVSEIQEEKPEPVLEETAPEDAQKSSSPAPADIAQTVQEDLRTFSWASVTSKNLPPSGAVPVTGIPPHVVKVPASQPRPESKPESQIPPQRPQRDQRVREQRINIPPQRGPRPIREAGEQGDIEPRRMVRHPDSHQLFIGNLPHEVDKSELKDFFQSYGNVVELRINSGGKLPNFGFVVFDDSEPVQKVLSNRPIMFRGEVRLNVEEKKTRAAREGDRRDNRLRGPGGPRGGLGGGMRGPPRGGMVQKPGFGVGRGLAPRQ
# Technique: RNA Bind-n-Seq
# Molecule type: RNA
# Matrix: in vitro
# Concentration: 200 nM
# Setting: whole 134-nt RNA, ends assumed
# Added: 150 mM KCl
# Reference: input library
# Reading: higher = stronger binding
# All sequences stand within: GGGAGUUCUACAGUCCGACGAUC … UGGAAUUCUCGGGUGUCAAGG
Strand,log2 enrichment
GUCCUGUGCUACACAUCGUAUGUACCGAAUCGGGAAAAAAGGAAAAAAGGAAAAAAGGGAAAGUAUUAUGUUACGCCGUUCGGAUCUGCA,-0.677
CCUGUGCUACACAUCGUAUGUACCGAAUCGGGGAAAAAGGGGAAAGGGGUUUUUUUGGGGAAAGUAUUAUGUUACGCCGUUCGGAUCUGC,0.173
UCCUGUGCUACACAUCGUAUGUACCGAAUCAAACCCCCCCAAACCCCCCCAAAUUUAAAAAAGUAUUAUGUUACGCCGUUCGGAUCUGCA,0.539
UGGGAGGUGGAUUUUGUUUAUUUUUUUAGCUCAUUUCCAGGGGUGGGAAUUUUUUGUUAAUAUGUGUCAUGAAUAAAGUUGUUUUUGAAA,0.225
CCUGUGCUACACAUCGUAUGUACCGAAUCGGGGAAAAAAGGGGAAAAAAGGGGAAAAAAGGAAAGUAUUAUGUUACGCCGUUCGGAUCUG,-0.381
CAAGUCCUGUGCUACACAUCGUAUGUACCGAAUCGGGUUUUUGGGAGGGAAAGGGAAAGUAUUAUGUUACGCCGUUCGGAUCUGCACUUC,0.517
UUCUAUUUCUUUCCUUAAUGUUUUUUUCUUCCCUACUGUUUUAUCCUCCCUUUGCUUUGGAAGGAUAUUGCUGCAUAUCGAGCUAAAGGA,0.0166
UUGACCUAGAGGAUGAGACCAUUGAUGCCGAGGUCAUGAACUCUCUAGCAGUUACUAUGGAUGACUUCCGGGUAAGGACCACACCCGUGC,-1.64
AGUCCUGUGCUACACAUCGUAUGUACCGAAUCGGGGUUUUGGGGUUUUGGGUUUUGGAAAGUAUUAUGUUACGCCGUUCGGAUCUGCACU,-0.388
CCUGUGCUACACAUCGUAUGUACCGAAUCGGGGAAAAAAAGGGGUUUUUUUGGGGUGGGGAAAGUAUUAUGUUACGCCGUUCGGAUCUGC,0.282
UCAAGUCCUGUGCUACACAUCGUAUGUACCGAAUCGGGAAGGGGAAGGGAAGGGGAAAGUAUUAUGUUACGCCGUUCGGAUCUGCACUUC,1.02
ACCAUGCAGGUGGGCAUCUUUGGGAAGUGGGGCAAGGGAGGGAUAGGGAGGGGGGUAACACUUUGGGAACAGGUGGUCCCAGGUCGUUUC,1.29
CCUCAAGUCCUGUGCUACACAUCGUAUGUACCGAAUCGGUUGGGGUUGGUUGGAAAGUAUUAUGUUACGCCGUUCGGAUCUGCACUUCCA,-0.0573
CUGUGCUACACAUCGUAUGUACCGAAUCGGGGCCCCCCCGGCCCCCCCGGGGCCCCCCCGGAAAGUAUUAUGUUACGCCGUUCGGAUCUG,-0.315

# Set 3
# Target: CCNA1, cyclin fold, Cln2 fusion (human)
# Technique: yeast growth competition, sequencing
# Matrix: yeast
# Setting: weak parent motif
# Reference: not given
# Reading: higher = stronger binding
# Parent: MASTL docking peptide (human); PMIAKNLMCELDE; partner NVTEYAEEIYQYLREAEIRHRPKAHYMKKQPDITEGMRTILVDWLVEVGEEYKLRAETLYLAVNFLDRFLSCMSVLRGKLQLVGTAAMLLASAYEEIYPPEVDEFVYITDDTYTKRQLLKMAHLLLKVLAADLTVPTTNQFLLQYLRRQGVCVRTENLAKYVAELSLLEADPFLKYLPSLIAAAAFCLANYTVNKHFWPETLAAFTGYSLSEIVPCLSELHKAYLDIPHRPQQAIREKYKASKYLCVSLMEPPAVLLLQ
Variant,normalised enrichment score
PMIAKNLMCGLDE [E10G],-0.0302
PMIAKNLMCALDE [E10A],0.313
PMIAKNLMCELAE [D12A],0.121
PMIAKNLMCTLDE [E10T],-0.0488
PMVAKNLMCELDE [I3V],-0.222
PMIAKNLMWELDE [C9W],0.711
PMIAKSLMCELDE [N6S],0.168
PYIAKNLMCELDE [M2Y],0.237
PMIAKNSMCELDE [L7S],0.0927
PMIAKTLMCELDE [N6T],0.616
PMIAKNLMCELIE [D12I],-0.406
PEIAKNLMCELDE [M2E],0.244
PMIAKNLMCSLDE [E10S],0.146
PLIAKNLMCELDE [M2L],0.0729
PMIAKNLECELDE [M8E],0.196
PMIAKMLMCELDE [N6M],0.319
PMIAKNLMCEVDE [L11V],0.0972

# Set 4
# Target: Prothrombin, mature alpha-thrombin (F2, Homo sapiens, UniProt P00734)
# Technique: aptamer microarray, sandwich
# Molecule type: DNA with 2'F-ANA
# Matrix: in vitro
# Concentration: 200 nM
# Setting: whole 15-mer aptamer, many near background
# Added: Cy3 exosite-II aptamer, 400 nM
# Reading: higher = stronger binding
# Strand: GGTTGGTGTGGTTGG
Modification,mean fluorescence intensity
2'F-ANA at 1 2 4 7 10 11 12,53.6 a.u.
2'F-ANA at 1 2 3 4 8 11 12 13 15,239 a.u.
2'F-ANA at 1 2 5 10 13 14 15,49.1 a.u.
2'F-ANA at 3 8 9 13,1020 a.u.
2'F-ANA at 1 2 3 4 6 8 9 11 13 15,110 a.u.
2'F-ANA at 6 7 11 12,728 a.u.
2'F-ANA at 2 8 9 12 14,203 a.u.
2'F-ANA at 1 2 3 4 5 6 7 9 10 12 13 15,90.9 a.u.
2'F-ANA at 1 2 8 10 11 14 15,49.9 a.u.
2'F-ANA at 1 3 5 6 9 10 12 14 15,46.1 a.u.
2'F-ANA at 5 7 9 13 14,42.9 a.u.
2'F-ANA at 2 3 7 8 9 13 14 15,435 a.u.
2'F-ANA at 6 7 10 11 14 15,92.9 a.u.
2'F-ANA at 1 3 4 7 11 13,175 a.u.
2'F-ANA at 3 6 7 9 11 14 15,477 a.u.
2'F-ANA at 1 2 4 6 9 10 12 13,52.5 a.u.
2'F-ANA at 2 3 4 6 8 10 12,297 a.u.

# Single results of other studies
# Technique: two-hybrid
# Reference: out of 4 tests
# Reading: higher = firmer interaction
# T1: itself; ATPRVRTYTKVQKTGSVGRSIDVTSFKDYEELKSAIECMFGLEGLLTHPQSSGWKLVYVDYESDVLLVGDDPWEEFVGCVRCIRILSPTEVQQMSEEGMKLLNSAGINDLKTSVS
# T2: itself; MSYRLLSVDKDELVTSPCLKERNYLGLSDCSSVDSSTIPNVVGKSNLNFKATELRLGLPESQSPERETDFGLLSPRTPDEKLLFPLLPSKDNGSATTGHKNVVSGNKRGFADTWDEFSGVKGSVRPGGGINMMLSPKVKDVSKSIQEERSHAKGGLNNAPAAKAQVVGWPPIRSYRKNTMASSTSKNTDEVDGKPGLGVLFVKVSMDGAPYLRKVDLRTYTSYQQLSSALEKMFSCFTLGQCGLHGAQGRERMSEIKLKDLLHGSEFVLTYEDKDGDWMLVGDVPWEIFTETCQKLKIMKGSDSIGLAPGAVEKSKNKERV
# T3: itself; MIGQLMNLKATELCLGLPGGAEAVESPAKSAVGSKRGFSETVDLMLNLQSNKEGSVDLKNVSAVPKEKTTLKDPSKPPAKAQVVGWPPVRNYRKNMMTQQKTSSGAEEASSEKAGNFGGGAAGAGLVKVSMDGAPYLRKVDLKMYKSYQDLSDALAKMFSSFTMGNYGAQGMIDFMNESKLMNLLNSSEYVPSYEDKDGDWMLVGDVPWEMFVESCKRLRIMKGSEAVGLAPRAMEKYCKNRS
# T4: itself; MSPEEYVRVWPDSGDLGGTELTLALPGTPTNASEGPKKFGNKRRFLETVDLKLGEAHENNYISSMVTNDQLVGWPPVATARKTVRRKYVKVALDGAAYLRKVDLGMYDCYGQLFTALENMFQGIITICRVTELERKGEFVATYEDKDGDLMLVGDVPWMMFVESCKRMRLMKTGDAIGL
# B9: ARF5 788-902 (Arabidopsis thaliana, UniProt P93024); chain ATPRVRTYTKVQKTGSVGRSIDVTSFKDYEELKSAIECMFGLEGLLTHPQSSGWKLVYVDYESDVLLVGDDPWEEFVGCVRCIRILSPTEVQQMSEEGMKLLNSAGINDLKTSVS
# B10: IAA15 (Arabidopsis thaliana, UniProt Q9C966); chain MSPEEYVRVWPDSGDLGGTELTLALPGTPTNASEGPKKFGNKRRFLETVDLKLGEAHENNYISSMVTNDQLVGWPPVATARKTVRRKYVKVALDGAAYLRKVDLGMYDCYGQLFTALENMFQGIITICRVTELERKGEFVATYEDKDGDLMLVGDVPWMMFVESCKRMRLMKTGDAIGL
Molecule,partner,positive tests
B9 (ARF5 788-902),"T1, itself",0
"IAA8 (Arabidopsis thaliana, UniProt Q38826)","T2, itself",2
"IAA7 (Arabidopsis thaliana, UniProt Q38825)","T3, itself",0
B10 (IAA15),"T4, itself",2

# Some of these lines once more (set 2):
Strand,log2 enrichment
CCUGUGCUACACAUCGUAUGUACCGAAUCGGGGAAAAAGGGGAAAGGGGUUUUUUUGGGGAAAGUAUUAUGUUACGCCGUUCGGAUCUGC,0.173
UCCUGUGCUACACAUCGUAUGUACCGAAUCAAACCCCCCCAAACCCCCCCAAAUUUAAAAAAGUAUUAUGUUACGCCGUUCGGAUCUGCA,0.539
UGGGAGGUGGAUUUUGUUUAUUUUUUUAGCUCAUUUCCAGGGGUGGGAAUUUUUUGUUAAUAUGUGUCAUGAAUAAAGUUGUUUUUGAAA,0.225
CCUGUGCUACACAUCGUAUGUACCGAAUCGGGGAAAAAAGGGGAAAAAAGGGGAAAAAAGGAAAGUAUUAUGUUACGCCGUUCGGAUCUG,-0.381
CAAGUCCUGUGCUACACAUCGUAUGUACCGAAUCGGGUUUUUGGGAGGGAAAGGGAAAGUAUUAUGUUACGCCGUUCGGAUCUGCACUUC,0.517
UUCUAUUUCUUUCCUUAAUGUUUUUUUCUUCCCUACUGUUUUAUCCUCCCUUUGCUUUGGAAGGAUAUUGCUGCAUAUCGAGCUAAAGGA,0.0166
UUGACCUAGAGGAUGAGACCAUUGAUGCCGAGGUCAUGAACUCUCUAGCAGUUACUAUGGAUGACUUCCGGGUAAGGACCACACCCGUGC,-1.64
